{"data": "Published values from different studies", "note": "Parts stem from different laboratories: compare values within a part only. ± marks the error that the study gave.", "UniProt P34914, sequence (whole entry, looked up)": "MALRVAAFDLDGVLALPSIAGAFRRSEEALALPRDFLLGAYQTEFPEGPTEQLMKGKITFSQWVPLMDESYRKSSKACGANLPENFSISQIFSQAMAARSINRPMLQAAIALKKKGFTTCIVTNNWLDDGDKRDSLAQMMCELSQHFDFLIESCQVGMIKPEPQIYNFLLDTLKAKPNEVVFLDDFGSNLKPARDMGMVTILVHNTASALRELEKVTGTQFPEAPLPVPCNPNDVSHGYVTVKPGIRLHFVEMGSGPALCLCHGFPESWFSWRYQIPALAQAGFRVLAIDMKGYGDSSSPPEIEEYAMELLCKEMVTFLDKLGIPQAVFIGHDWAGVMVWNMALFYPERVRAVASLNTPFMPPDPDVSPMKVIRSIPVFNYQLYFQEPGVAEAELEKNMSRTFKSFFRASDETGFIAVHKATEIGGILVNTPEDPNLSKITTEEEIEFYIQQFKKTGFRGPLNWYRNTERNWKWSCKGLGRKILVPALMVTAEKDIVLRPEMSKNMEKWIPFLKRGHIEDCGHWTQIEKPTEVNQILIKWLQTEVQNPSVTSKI"}
{"data": "Block 1", "Structure (SMILES)": "Cc1cc(OCc2nnc(SC3CCCC3)n2-c2cccnc2)ccc1-c1ccc(S(C)(=O)=O)cc1"}
{"cell line": "NCI-H460", "CC50": "22.2 µM"}
{"cell line": "SW-620", "CC50": "88.6 µM"}
{"cell line": "UO-31", "CC50": "5.21 µM"}
{"cell line": "HOP-62", "CC50": "> 100 µM"}
{"data": "Further values, each from its own experiment"}
{"Molecule": "Cc1cccc(CN2CCC(C(=O)Nc3ccc(-c4cnc5ccccc5c4)cc3)CC2)c1", "system": "sodium phosphate buffer, 1% DMSO", "setting": "pH 7.4", "measurement": "solubility", "value": "31 to 63 µM"}
{"Molecule": "O=C(Nc1ccc(C(F)(F)F)cc1)NC1CCN(c2c(NS(=O)(=O)Cc3ccccc3)c(=O)c2=O)CC1", "tested on": "Ephx2 (Mus musculus, UniProt P34914)", "measurement": "IC50", "value": "1.2 ± 0.0984 µM"}
{"Molecule": "pyc (Rhizobium etli, UniProt Q2K340)", "tested on": "NC(=O)OP(=O)(O)O", "test": "steady-state kinetics", "setting": "pH 7.5, 25 °C, apparent", "measurement": "Km", "value": "2600 µM"}
{"Molecule": "O=C(Nc1ccc(-c2cnc3ccccc3c2)cc1)C1CCN(Cc2ccccc2)CC1", "system": "sodium phosphate buffer, 1% DMSO", "setting": "pH 7.4", "measurement": "solubility", "value": "63 to 125 µM"}
{"note": "A few entries again (further values, each from its own experiment):"}
{"Molecule": "O=C(Nc1ccc(-c2cnc3ccccc3c2)cc1)C1CCN(Cc2ccccc2)CC1", "system": "sodium phosphate buffer, 1% DMSO", "setting": "pH 7.4", "measurement": "solubility", "value": "63 to 125 µM"}
